Measured values collected from several papers.
Each line is one published result; not all experiments were run side by side.
rep papain-like protease: Replicase polyprotein 1ab, papain-like protease (rep, Porcine epidemic diarrhea virus, UniProt P0C6Y4)
MAPK3: Mitogen-activated protein kinase 3 (MAPK3, Homo sapiens, UniProt P27361)
UniProt P27361, sequence (whole entry, looked up): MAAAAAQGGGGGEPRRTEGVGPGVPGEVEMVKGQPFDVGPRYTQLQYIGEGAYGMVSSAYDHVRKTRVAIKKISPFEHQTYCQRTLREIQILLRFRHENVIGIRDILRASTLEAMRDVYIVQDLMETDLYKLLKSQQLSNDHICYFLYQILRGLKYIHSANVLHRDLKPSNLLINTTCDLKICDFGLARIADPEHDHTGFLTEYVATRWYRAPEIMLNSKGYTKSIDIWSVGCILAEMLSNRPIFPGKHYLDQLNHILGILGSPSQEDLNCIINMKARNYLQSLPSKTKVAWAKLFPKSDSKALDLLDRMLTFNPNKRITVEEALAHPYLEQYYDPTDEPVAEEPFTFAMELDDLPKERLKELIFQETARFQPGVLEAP
AMY2: Pancreatic alpha-amylase (AMY2, Sus scrofa, UniProt P00690)
UniProt P00690, sequence (whole entry, looked up): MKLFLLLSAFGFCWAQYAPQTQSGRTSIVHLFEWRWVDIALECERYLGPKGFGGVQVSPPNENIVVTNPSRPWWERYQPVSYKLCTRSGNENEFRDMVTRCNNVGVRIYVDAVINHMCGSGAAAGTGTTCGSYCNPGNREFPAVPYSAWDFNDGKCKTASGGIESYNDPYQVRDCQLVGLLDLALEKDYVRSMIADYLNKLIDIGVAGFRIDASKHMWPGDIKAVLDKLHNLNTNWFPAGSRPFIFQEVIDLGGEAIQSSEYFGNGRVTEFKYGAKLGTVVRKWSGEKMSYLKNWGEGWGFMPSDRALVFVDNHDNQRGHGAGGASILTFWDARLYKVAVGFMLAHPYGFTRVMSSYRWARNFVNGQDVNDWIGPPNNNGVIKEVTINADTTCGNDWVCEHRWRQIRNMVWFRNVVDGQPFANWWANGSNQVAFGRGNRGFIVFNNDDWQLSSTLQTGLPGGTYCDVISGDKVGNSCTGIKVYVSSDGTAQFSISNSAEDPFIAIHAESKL
NT5E: 5'-nucleotidase (NT5E, Homo sapiens, UniProt P21589)
UniProt P21589, sequence (whole entry, looked up): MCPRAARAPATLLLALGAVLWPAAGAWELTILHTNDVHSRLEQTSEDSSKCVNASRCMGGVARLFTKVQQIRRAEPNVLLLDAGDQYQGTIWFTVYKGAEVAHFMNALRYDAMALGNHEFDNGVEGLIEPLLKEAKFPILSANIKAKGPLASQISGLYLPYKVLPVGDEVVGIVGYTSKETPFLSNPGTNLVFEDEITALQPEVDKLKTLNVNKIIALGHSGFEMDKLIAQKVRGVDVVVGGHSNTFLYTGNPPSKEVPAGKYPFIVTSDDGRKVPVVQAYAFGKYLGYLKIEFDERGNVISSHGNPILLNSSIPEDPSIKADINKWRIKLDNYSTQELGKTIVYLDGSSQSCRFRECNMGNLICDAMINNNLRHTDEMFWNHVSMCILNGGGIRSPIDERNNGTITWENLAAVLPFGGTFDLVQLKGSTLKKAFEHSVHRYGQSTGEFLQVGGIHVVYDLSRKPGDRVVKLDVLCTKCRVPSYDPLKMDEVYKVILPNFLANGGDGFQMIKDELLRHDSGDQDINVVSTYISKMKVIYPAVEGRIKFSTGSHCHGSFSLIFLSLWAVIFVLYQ
MPO: Myeloperoxidase (MPO, Homo sapiens, UniProt P05164)
UniProt P05164, sequence (whole entry, looked up): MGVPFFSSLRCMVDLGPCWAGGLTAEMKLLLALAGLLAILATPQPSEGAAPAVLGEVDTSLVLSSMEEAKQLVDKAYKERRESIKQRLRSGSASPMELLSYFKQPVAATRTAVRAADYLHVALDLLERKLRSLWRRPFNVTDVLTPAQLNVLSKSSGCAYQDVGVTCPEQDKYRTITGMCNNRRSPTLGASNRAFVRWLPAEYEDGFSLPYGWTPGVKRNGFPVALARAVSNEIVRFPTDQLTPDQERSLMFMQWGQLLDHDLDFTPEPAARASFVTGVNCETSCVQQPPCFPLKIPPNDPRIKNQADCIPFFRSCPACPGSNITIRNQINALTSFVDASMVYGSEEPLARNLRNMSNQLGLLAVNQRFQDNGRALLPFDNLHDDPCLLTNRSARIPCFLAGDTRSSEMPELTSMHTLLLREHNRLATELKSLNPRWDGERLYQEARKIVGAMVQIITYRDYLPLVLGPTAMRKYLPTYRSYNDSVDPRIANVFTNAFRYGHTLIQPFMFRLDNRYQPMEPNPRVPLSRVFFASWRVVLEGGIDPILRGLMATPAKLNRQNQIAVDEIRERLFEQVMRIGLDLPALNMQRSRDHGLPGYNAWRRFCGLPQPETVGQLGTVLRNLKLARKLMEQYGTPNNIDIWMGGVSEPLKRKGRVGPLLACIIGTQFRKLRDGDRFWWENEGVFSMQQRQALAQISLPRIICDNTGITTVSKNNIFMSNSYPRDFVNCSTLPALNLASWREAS
PIP4K2C: Phosphatidylinositol 5-phosphate 4-kinase type-2 gamma (PIP4K2C, Homo sapiens, UniProt Q8TBX8)
UniProt Q8TBX8, sequence (whole entry, looked up): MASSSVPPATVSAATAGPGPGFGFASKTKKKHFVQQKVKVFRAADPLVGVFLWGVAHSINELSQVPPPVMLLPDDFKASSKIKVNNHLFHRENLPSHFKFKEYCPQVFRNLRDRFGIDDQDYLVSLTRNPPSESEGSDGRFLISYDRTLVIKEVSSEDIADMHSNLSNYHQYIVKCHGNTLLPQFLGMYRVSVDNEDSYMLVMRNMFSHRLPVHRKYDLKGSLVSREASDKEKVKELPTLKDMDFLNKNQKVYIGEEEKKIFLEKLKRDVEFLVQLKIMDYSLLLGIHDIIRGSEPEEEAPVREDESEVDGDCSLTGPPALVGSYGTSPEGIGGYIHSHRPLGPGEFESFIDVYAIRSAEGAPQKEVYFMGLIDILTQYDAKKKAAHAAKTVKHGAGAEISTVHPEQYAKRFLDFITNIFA
CDK7 with cyclin H: Cyclin-dependent kinase 7, with cyclin H (CDK7, Homo sapiens, UniProt P50613)
UniProt P50613, sequence (whole entry, looked up): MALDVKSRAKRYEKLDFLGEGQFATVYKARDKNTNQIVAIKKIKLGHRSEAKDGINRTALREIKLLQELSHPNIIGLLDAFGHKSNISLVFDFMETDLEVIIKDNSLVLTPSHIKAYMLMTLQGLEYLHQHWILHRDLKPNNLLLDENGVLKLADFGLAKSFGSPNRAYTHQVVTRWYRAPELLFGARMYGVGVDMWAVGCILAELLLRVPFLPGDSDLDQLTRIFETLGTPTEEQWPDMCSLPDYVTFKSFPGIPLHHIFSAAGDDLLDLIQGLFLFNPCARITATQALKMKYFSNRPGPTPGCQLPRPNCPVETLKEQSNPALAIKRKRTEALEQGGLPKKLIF
UniProt P23975, sequence (whole entry, looked up): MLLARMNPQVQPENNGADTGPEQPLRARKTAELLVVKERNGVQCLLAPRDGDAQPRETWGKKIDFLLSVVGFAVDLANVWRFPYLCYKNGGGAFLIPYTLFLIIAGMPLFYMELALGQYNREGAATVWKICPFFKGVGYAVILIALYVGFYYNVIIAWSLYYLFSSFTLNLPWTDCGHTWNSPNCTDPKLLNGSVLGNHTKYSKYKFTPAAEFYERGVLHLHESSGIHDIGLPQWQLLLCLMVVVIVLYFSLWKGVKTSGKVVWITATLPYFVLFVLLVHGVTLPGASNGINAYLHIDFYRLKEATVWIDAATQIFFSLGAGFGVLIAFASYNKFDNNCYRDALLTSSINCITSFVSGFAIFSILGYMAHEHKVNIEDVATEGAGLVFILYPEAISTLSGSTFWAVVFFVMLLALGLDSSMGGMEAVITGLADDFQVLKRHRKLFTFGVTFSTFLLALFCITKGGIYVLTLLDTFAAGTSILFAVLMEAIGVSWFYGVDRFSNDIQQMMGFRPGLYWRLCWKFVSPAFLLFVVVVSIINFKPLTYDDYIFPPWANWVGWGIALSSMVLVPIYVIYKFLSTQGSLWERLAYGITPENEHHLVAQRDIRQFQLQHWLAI
UniProt O15439, sequence (whole entry, looked up): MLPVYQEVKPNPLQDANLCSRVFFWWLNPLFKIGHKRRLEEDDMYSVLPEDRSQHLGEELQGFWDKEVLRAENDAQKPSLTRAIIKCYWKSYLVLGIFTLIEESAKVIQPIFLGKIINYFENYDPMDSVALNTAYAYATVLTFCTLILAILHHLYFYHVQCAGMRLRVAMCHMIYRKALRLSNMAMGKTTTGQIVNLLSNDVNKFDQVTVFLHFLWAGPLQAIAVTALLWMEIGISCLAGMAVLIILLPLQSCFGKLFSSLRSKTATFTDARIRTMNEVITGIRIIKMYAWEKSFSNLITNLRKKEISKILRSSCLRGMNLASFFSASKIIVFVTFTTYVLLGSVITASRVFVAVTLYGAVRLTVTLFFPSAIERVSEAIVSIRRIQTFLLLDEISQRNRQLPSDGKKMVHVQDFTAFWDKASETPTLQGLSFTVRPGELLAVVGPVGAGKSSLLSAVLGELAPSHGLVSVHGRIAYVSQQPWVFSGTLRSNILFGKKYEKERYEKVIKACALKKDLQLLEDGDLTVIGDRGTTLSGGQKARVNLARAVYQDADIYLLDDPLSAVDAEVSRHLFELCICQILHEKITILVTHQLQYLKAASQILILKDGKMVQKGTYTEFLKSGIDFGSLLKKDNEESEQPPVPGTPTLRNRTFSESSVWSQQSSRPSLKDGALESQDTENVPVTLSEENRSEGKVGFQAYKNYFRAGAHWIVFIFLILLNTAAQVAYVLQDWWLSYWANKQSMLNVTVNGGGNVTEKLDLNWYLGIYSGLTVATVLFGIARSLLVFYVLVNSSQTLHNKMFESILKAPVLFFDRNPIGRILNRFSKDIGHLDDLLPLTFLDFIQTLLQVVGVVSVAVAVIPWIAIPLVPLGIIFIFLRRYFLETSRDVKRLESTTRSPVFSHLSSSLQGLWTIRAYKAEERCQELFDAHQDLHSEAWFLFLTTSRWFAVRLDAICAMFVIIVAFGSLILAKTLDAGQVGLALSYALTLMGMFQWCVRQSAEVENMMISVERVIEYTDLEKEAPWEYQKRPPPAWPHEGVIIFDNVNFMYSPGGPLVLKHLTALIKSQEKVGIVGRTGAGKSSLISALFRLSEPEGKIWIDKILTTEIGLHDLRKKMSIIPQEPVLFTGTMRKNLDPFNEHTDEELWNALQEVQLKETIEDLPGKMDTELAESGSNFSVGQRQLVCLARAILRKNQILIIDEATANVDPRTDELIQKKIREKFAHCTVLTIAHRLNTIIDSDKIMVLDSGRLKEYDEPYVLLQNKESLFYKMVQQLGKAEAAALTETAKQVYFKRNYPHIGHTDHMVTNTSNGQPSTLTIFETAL

For `COc1ccc(C(=O)NCc2cc(Br)c(OC)c(OC)c2)cc1`, the inhibition was 98.1% (rep papain-like protease; enzyme activity, inhibitor, FRET; 10 µM).
With `CC[C@H](C)[C@H](NC(=O)[C@H](CCC(N)=O)NC(=O)[C@@H](NC(=O)[C@H](CCSC)NC(=O)[C@H](CCCCN)NC(=O)[C@H](CO)NC(=O)[C@@H](NC(=O)[C@H](CCSC)NC(=O)[C@H](CC(C)C)NC(=O)[C@H](CC(N)=O)NC(=O)[C@@H](NC(=O)[C@@H](NC(=O)[C@H](CO)NC(=O)[C@H](CC(C)C)NC(=O)[C@H](C)NC(=O)[C@H](CCCNC(=N)N)NC(=O)[C@H](CCC(=O)O)NC(=O)[C@H](Cc1ccc(O)cc1)NC(=O)[C@H](Cc1ccccc1)NC(=O)[C@H](C)NC(=O)[C@H](CC(N)=O)NC(=O)[C@@H](N)CCCCN)[C@@H](C)CC)[C@@H](C)CC)[C@@H](C)O)C(C)C)C(=O)N[C@@H](CC(N)=O)C(=O)N[C@H](C(=O)O)C(C)C` the inhibition was 54% (MAPK3; enzyme activity, inhibitor, radiometric; 500 µM).
With `CCCN(O)N=Nc1ccc(S(=O)(=O)Nc2onc(C)c2C)cc1` the inhibition was 36.8% (AMY2; enzyme activity, inhibitor; 60 µg/mL).
For `Nc1c(C(=O)Nc2cccnc2)sc2nc(-c3ccccc3)cc(C(F)(F)F)c12`, the inhibition was 73% (NT5E; enzyme activity, inhibitor; 10 µM).
The inhibition of `CN1CC(Oc2cnc(C#N)cc2-c2ccn3nc(NC(=O)C4CC4)cc3c2)C1` is reported as -5% (CLK4 (Homo sapiens, UniProt Q9HAZ1); enzyme activity, inhibitor; 1 µM).
`NC/C(=C\F)COc1cccc(Cn2c(=S)[nH]c(=O)c3[nH]cnc32)c1` has an inhibition of 99.8% (MPO; enzyme activity, inhibitor, fluorescence; 30 µM).
With `Cc1cccc(N(O)N=Nc2ccc(S(=O)(=O)Nc3cc(C)on3)cc2)c1` the inhibition was 47.4% (AMY2; enzyme activity, inhibitor; 180 µg/mL).
`CCOC(=O)c1ccc(NC(=O)c2sc3nc(C)cc(-c4ccccc4)c3c2N)cc1` gave an inhibition of -21% (NT5E; enzyme activity, inhibitor; 10 µM).
For `COc1cc(CNC(=O)N2CCCC2)cc(Br)c1OC`, the inhibition was 2.72% (rep papain-like protease; enzyme activity, inhibitor, FRET; 10 µM).
`CCCC(=O)Nc1ccc(-c2ccc3ncn(Cc4ccccc4)c(=O)c3c2)cn1` gave an inhibition of < 80% (PIP4K2C; binding; 0.5 µM).
`Cc1cc(O)c(-c2ccc([C@@H](C)CN(C)C)cc2)c2c1[nH]c(=O)c1sccc12` has an inhibition of 3.35% (DGKA (Homo sapiens, UniProt P23743); enzyme activity, inhibitor; 0.1 µM).
`Cn1c(=O)c2c(ncn2C)n(C)c1=O` has an inhibition of 20% (ABCC4 (Homo sapiens, UniProt O15439); transporter uptake, inhibitor; 200 µM, oocytes).
For `COc1cc2c(cc1OC)C(=O)N(CC1CCNC1)C2` (stereo not shown), the inhibition was -2.36% (ache (Electrophorus electricus, UniProt O42275); enzyme activity, inhibitor; 1 µM).
For `C[C@H]1O[C@H](O[C@H]2[C@H](O)[C@@H](O)[C@@H](O[C@H]3[C@H](O)[C@@H](O)C(O)O[C@@H]3CO)O[C@@H]2CO)[C@H](O)[C@@H](O)[C@@H]1N[C@H]1C=C(CO)[C@@H](O)[C@H](O)[C@H]1O` (stereo partly shown), the inhibition was 48.9% (AMY2; enzyme activity, inhibitor; 60 µg/mL).
For `O=C1C(CC[S+]([O-])c2ccccc2)C(=O)N(c2ccccc2)N1c1ccccc1` (stereo not shown), the inhibition was 97.5% (SLC22A11 (Homo sapiens, UniProt Q9NSA0); transporter uptake, inhibitor; 25 µM).
The inhibition of `Cc1cc(=O)c2c(O[C@@H]3OC(CO)[C@@H](O)[C@H](O)C3O)cc(O)cc2o1` (stereo partly shown) is reported as 18.9% (CDK7 with cyclin H; enzyme activity, inhibitor, ADP detection; 10 µM).
`CC(C)OCCn1c(=S)[nH]c(=O)c2[nH]ccc21` gave an inhibition of -0.594% (MPO; enzyme activity, inhibitor, fluorescence; 300 pM).
`CCCCC(=O)Nc1ccc(-c2ccc3ncn(CCCC)c(=O)c3c2)cn1` has an inhibition of 99.4% (PIP4K2C; binding; 0.5 µM).
With `Cc1cc(=O)c2c(O)cc(O)c([C@H]3CCN(C)C[C@H]3O)c2o1` the inhibition was 75% (CDK7 with cyclin H; enzyme activity, inhibitor, ADP detection; 10 µM).
`CC[C@H](C)[C@H](NC(=O)[C@H](CCC(N)=O)NC(=O)[C@H](CC(C)C)NC(=O)[C@H](CCSC)NC(=O)[C@H](CCCCN)NC(=O)[C@H](CO)NC(=O)[C@H](CO)NC(=O)[C@H](CCSC)NC(=O)[C@H](CC(C)C)NC(=O)[C@H](CC(N)=O)NC(=O)[C@@H](NC(=O)[C@@H](NC(=O)[C@H](CO)NC(=O)[C@H](CC(C)C)NC(=O)[C@H](CS)NC(=O)[C@H](CCCNC(=N)N)NC(=O)[C@H](CC(=O)O)NC(=O)[C@H](Cc1c[nH]c2ccccc12)NC(=O)[C@H](Cc1ccccc1)NC(=O)[C@H](C)NC(=O)[C@H](CCC(=O)O)NC(=O)[C@@H](N)CCCCN)C(C)C)[C@@H](C)CC)C(=O)N[C@@H](CC(N)=O)C(=O)N[C@@H](C)C(=O)O` has an inhibition of 0% (MAPK3; enzyme activity, inhibitor, radiometric; 10 µM).
`CCN(O)N=Nc1ccc(S(=O)(=O)Nc2nccs2)cc1` has an inhibition of 26.3% (AMY2; enzyme activity, inhibitor; 120 µg/mL).
With `O=C(NCc1cc(O)c(O)c(Br)c1)c1cccc2ccccc12` the inhibition was 23.5% (rep papain-like protease; enzyme activity, inhibitor, FRET; 10 µM).
`O=C(Nc1cccc(Br)c1)c1ccc2c(c1)C(=O)NC2=O` gave an inhibition of 81.3% (MAOB (Homo sapiens, UniProt P27338); enzyme activity, inhibitor; 1 µM).
`CN(O)N=Nc1ccc(S(=O)(=O)Nc2nccs2)cc1` has an inhibition of 52.6% (AMY2; enzyme activity, inhibitor; 180 µg/mL).
For `COc1cc(CNC(=O)CSc2nc(C)cc(C)c2C#N)cc(OC)c1OC`, the inhibition was -14% (NT5E; enzyme activity, inhibitor; 10 µM).
`COc1ccc(CNC(=O)c2ccccc2)cc1OC` has an inhibition of 34.5% (Replicase polyprotein 1ab, main protease (rep, Porcine epidemic diarrhea virus, UniProt P0C6Y4); enzyme activity, inhibitor, FRET; 10 µM).
The inhibition of `Cc1cc(NS(=O)(=O)c2ccc(N=NN(O)c3ccccc3)cc2)no1` is reported as 63.2% (AMY2; enzyme activity, inhibitor; 240 µg/mL).
`O=C(NCc1cc(O)c(O)c(Br)c1)c1nccs1` has an inhibition of 99% (rep papain-like protease; enzyme activity, inhibitor, FRET; 10 µM).
`COCCOCCOCCNC(=O)CSc1nc(C)cc(C)c1C#N` gave an inhibition of 14% (NT5E; enzyme activity, inhibitor; 10 µM).
The inhibition of `COc1cc(CNC(=O)c2ccc(N(C)C)cc2)cc(Br)c1OC` is reported as 17.7% (rep papain-like protease; enzyme activity, inhibitor, FRET; 10 µM).
`CCOC(=O)[C@@]12C[C@@H]1[C@@H](n1cnc3c(NCCCCCc4ccccc4)nc(I)nc31)[C@H](O)[C@@H]2O` gave an inhibition of 61% (SLC6A2 (Homo sapiens, UniProt P23975); ligand displacement, radioligand; 10 µM).

Excerpt of the above:
With `Cc1cc(=O)c2c(O)cc(O)c([C@H]3CCN(C)C[C@H]3O)c2o1` the inhibition was 75% (CDK7 with cyclin H; enzyme activity, inhibitor, ADP detection; 10 µM).
`CC[C@H](C)[C@H](NC(=O)[C@H](CCC(N)=O)NC(=O)[C@H](CC(C)C)NC(=O)[C@H](CCSC)NC(=O)[C@H](CCCCN)NC(=O)[C@H](CO)NC(=O)[C@H](CO)NC(=O)[C@H](CCSC)NC(=O)[C@H](CC(C)C)NC(=O)[C@H](CC(N)=O)NC(=O)[C@@H](NC(=O)[C@@H](NC(=O)[C@H](CO)NC(=O)[C@H](CC(C)C)NC(=O)[C@H](CS)NC(=O)[C@H](CCCNC(=N)N)NC(=O)[C@H](CC(=O)O)NC(=O)[C@H](Cc1c[nH]c2ccccc12)NC(=O)[C@H](Cc1ccccc1)NC(=O)[C@H](C)NC(=O)[C@H](CCC(=O)O)NC(=O)[C@@H](N)CCCCN)C(C)C)[C@@H](C)CC)C(=O)N[C@@H](CC(N)=O)C(=O)N[C@@H](C)C(=O)O` has an inhibition of 0% (MAPK3; enzyme activity, inhibitor, radiometric; 10 µM).
`CCN(O)N=Nc1ccc(S(=O)(=O)Nc2nccs2)cc1` has an inhibition of 26.3% (AMY2; enzyme activity, inhibitor; 120 µg/mL).
